Measured values from different studies.
Lines come from different studies, so protocols differ. Values after ≈ are worked out from the molar mass of the structure shown.

Structure (SMILES)	target or system	test	system	conditions	scale	quantity	value
CC1(C)S[C@@H]2[C@H](NC(=O)[C@H](N)c3ccccc3)C(=O)N2[C@H]1C(=O)O	Staphylococcus cohnii	broth microdilution	L5	18 h	–	MIC	8 mg/L (≈ 22.9 µM)
C[C@H]1[C@H](NC(=O)/C(=N\OC(C)(C)C(=O)O)c2csc(N)n2)C(=O)N1S(=O)(=O)O	Proteus mirabilis	agar dilution	ATCC 49565 susceptible	–	–	MIC	≤ 0.03 mg/L
Cc1ncc(C[n+]2csc(CCOP(=O)(O)O)c2C)c(N)n1	–	binding, equilibrium dialysis LC-MS	–	5 µM, thermostabilized A2AR-BRIL construct	baseline: no-protein control, direction not given	z-scored log2 fold change	0.303
CC1(C)S[C@@H]2[C@H](NC(=O)[C@H](N)c3ccccc3)C(=O)N2[C@H]1C(=O)O	Salmonella enterica serovar Derby	broth microdilution	clinical isolate RKI-No 270/14	–	–	MIC	> 16 mg/L
CC(C)CC(=O)NCC(=O)O	–	binding, equilibrium dialysis LC-MS	–	5 µM, thermostabilized A2AR-BRIL construct	baseline: no-protein control, direction not given	z-scored log2 fold change	-1.03
CO[C@H]1/C=C/O[C@@]2(C)Oc3c(C)c(O)c4c(O)c(c(/C=N/N5CCN(C)CC5)c(O)c4c3C2=O)NC(=O)/C(C)=C\C=C\[C@H](C)[C@H](O)[C@@H](C)[C@@H](O)[C@@H](C)[C@H](OC(C)=O)[C@@H]1C	Proteus mirabilis	broth microdilution	–	18 h	–	MIC	64 mg/L (≈ 77.8 µM)
CNC(C)C1CCC(N)C(OC2C(N)CC(N)C(OC3OCC(C)(O)C(NC)C3O)C2O)O1 (stereo not shown)	Salmonella enterica serovar Derby	broth microdilution	clinical isolate RKI-No 436/14	–	–	MIC	≤ 0.5 mg/L
CCn1cc(C(=O)O)c(=O)c2cc(F)c(N3CCNCC3)cc21	Proteus mirabilis	broth microdilution	–	18 h	–	MIC	0.5 mg/L (≈ 1.57 µM)
CC1(C)SC2C(NC(=O)C(NC(=O)C3=C(O)C4(CC4)NC3=O)c3ccccc3)C(=O)N2C1C(=O)O (stereo not shown)	Escherichia coli	broth microdilution	BW25113 wild type	18 h	–	MIC	50 mg/L (≈ 99.9 µM)
CNC(C)C1CCC(N)C(OC2C(N)CC(N)C(OC3OCC(C)(O)C(NC)C3O)C2O)O1 (stereo not shown)	Staphylococcus cohnii	broth microdilution	L5	18 h	–	MIC	> 128 mg/L
CN(C)c1cc(NC(=O)c2ccccn2)c(O)c2c1C[C@H]1C[C@H]3[C@H](N(C)C)C(O)=C(C(N)=O)C(=O)[C@@]3(O)C(O)=C1C2=O	Mycobacterium tuberculosis	cell growth, broth microdilution	H37Rv, 7H9/ADG medium	7 days, pH 7.4, 37 °C	–	MIC	> 200 mg/L
CC1(C)S[C@@H]2[C@H](NC(=O)Cc3ccccc3)C(=O)N2[C@H]1C(=O)O	Staphylococcus cohnii	broth microdilution	L5	18 h	–	MIC	16 mg/L
C[C@@H](O)[C@H]1C(=O)N2C(C(=O)O)=C(S[C@@H]3CN[C@H](C(=O)N(C)C)C3)[C@H](C)[C@H]12	Proteus mirabilis	broth microdilution	–	18 h	–	MIC	0.5 mg/L (≈ 1.3 µM)

A few entries again:
Structure (SMILES)	target or system	test	system	conditions	scale	quantity	value
C[C@@H](O)[C@H]1C(=O)N2C(C(=O)O)=C(S[C@@H]3CN[C@H](C(=O)N(C)C)C3)[C@H](C)[C@H]12	Proteus mirabilis	broth microdilution	–	18 h	–	MIC	0.5 mg/L (≈ 1.3 µM)
